{"data": "Measured values of several laboratories", "CD274": "Programmed cell death 1 ligand 1 (CD274, Homo sapiens, UniProt Q9NZQ7)", "Cacna1c": "Voltage-dependent L-type calcium channel subunit alpha-1C (Cacna1c, Mus musculus, UniProt Q01815)", "SIRT3": "NAD-dependent protein deacetylase sirtuin-3, mitochondrial (SIRT3, Homo sapiens, UniProt Q9NTG7)", "BRD9": "Bromodomain-containing protein 9 (BRD9, Homo sapiens, UniProt Q9H8M2)", "Protein AF-9 with DOT1L": "Protein AF-9, with DOT1L (Homo sapiens, UniProt P42568)", "LRRC8C Y126F part LRRC8A IL1 chimera": "Volume-regulated anion channel subunit LRRC8C, part LRRC8A IL1 chimera (LRRC8C, Homo sapiens, UniProt Q8TDW0, Y126F)", "CSNK1D": "Casein kinase I isoform delta (CSNK1D, Homo sapiens, UniProt P48730)", "note": "Compare with care: the assays were run in different laboratories. Several values in a cell are separate wells, animals, samples, runs or records. ± gives the spread as reported.", "sequence of UniProt Q9H8M2 (whole entry, looked up)": "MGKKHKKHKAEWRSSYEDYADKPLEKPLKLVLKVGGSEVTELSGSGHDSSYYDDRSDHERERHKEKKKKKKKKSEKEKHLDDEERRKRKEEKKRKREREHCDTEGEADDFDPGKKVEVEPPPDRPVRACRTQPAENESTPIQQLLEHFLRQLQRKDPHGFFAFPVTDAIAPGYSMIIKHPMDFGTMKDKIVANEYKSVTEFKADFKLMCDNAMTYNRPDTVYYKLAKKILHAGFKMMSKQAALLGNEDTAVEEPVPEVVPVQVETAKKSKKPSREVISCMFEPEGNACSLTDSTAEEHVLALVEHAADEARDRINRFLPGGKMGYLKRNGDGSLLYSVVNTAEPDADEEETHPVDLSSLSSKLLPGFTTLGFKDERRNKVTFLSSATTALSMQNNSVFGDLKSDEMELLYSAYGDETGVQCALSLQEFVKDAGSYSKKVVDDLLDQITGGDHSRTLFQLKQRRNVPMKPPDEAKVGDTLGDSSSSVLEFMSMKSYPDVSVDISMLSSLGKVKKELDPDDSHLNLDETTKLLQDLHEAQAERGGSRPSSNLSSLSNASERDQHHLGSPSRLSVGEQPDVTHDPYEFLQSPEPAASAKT", "sequence of UniProt Q01815 (whole entry, looked up)": "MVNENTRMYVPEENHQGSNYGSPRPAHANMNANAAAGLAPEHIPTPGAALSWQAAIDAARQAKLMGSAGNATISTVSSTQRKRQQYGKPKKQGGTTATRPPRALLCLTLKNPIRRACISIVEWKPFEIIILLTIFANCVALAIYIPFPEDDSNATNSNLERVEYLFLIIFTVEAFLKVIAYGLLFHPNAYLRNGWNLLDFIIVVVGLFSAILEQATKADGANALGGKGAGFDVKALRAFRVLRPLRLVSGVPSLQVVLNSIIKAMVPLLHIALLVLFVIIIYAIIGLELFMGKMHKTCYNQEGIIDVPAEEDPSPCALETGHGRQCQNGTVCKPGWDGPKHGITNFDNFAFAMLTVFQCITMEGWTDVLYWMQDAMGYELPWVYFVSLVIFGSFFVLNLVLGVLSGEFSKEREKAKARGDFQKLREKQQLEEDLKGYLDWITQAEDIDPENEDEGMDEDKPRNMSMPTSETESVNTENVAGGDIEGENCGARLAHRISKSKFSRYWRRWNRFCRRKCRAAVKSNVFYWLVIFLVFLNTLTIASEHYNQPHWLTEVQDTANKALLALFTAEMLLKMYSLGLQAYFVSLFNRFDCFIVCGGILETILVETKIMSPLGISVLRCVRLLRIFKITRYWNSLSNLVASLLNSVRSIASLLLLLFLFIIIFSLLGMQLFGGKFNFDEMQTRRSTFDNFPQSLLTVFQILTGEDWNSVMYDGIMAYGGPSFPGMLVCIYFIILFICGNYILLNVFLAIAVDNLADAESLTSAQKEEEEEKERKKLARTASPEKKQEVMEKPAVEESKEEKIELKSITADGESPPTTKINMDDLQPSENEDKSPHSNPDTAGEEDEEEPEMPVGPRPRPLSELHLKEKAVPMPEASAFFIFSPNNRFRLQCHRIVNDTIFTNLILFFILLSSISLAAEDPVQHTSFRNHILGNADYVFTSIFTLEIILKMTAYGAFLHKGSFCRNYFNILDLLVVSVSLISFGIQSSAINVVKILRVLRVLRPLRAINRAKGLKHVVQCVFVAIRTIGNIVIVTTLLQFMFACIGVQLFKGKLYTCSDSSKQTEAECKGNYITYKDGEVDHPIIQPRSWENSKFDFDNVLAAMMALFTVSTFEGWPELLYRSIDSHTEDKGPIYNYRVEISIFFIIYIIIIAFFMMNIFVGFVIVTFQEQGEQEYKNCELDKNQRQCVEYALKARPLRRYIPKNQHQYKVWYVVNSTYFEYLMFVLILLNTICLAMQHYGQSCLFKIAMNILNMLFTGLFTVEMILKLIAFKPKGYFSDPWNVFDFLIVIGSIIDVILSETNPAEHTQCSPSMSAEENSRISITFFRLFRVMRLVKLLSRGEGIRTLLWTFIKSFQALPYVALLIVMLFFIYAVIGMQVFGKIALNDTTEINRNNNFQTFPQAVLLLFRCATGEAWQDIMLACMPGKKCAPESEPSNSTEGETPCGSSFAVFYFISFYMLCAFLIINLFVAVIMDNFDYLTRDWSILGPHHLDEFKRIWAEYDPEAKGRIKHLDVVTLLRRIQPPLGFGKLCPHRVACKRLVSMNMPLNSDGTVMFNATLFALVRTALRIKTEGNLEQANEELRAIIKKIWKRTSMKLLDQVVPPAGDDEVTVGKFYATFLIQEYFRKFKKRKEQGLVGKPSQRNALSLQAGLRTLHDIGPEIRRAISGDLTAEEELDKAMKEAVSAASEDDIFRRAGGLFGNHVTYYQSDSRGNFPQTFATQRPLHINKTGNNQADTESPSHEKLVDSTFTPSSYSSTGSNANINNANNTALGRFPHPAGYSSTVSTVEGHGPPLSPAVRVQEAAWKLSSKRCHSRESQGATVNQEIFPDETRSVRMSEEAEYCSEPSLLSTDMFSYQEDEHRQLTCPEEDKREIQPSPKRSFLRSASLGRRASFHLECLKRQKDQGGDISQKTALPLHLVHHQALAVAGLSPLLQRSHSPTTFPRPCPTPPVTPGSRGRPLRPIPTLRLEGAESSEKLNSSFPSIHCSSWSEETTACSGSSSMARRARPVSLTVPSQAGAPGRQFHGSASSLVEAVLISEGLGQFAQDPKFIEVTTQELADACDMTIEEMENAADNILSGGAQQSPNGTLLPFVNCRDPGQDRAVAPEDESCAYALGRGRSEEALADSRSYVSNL", "sequence of UniProt P42568 (whole entry, looked up)": "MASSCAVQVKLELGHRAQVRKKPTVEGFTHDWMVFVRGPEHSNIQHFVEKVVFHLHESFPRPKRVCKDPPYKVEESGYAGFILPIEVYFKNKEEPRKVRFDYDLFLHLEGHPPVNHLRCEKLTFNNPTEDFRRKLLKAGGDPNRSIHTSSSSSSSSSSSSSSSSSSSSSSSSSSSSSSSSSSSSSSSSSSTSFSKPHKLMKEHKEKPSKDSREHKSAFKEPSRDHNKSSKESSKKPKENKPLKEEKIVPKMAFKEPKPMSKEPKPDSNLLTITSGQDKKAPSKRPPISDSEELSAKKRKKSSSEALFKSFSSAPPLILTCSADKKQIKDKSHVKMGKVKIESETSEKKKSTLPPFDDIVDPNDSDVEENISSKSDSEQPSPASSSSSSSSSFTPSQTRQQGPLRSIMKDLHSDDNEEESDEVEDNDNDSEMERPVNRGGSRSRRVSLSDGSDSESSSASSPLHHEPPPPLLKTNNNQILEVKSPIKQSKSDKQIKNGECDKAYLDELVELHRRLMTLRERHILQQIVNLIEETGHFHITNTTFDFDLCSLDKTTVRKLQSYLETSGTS", "sequence of UniProt Q9NZQ7 (whole entry, looked up)": "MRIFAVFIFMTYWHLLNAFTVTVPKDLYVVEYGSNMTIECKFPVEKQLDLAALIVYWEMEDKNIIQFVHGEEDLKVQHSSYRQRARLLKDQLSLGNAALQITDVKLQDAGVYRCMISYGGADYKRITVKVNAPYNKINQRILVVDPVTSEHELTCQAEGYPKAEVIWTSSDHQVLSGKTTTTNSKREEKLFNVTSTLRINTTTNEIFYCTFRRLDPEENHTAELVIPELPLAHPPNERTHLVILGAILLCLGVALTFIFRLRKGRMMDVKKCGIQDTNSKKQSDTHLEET", "sequence of UniProt Q9NTG7 (whole entry, looked up)": "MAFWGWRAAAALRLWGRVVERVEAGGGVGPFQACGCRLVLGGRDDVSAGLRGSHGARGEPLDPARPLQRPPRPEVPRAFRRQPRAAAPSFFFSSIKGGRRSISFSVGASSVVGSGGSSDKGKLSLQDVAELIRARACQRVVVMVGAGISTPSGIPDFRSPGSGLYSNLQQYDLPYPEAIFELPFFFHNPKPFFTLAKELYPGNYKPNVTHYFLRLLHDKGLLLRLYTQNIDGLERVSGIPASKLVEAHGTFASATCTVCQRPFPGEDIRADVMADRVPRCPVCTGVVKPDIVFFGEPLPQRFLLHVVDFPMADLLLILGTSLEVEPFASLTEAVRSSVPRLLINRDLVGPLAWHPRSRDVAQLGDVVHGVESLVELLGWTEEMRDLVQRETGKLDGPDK", "sequence of UniProt P48730 (whole entry, looked up)": "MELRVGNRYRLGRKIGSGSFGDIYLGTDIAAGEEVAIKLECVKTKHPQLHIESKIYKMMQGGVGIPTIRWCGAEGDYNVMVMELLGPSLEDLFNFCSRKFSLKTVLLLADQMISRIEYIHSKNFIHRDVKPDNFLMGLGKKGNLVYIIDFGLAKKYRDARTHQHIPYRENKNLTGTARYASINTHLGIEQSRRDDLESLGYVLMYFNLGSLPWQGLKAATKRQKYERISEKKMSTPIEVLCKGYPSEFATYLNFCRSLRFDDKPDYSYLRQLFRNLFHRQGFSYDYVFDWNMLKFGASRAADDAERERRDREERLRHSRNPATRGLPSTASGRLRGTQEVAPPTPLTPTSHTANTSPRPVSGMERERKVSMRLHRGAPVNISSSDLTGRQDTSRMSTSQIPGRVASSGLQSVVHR", "sequence of UniProt P28074 (whole entry, looked up)": "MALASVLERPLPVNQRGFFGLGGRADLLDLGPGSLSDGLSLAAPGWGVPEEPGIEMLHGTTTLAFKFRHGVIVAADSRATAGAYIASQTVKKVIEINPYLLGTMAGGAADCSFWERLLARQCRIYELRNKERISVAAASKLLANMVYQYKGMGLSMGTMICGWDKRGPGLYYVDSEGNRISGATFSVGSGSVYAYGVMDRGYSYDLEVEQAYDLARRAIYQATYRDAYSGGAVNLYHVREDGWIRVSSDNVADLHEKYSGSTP", "sequence of UniProt P08246 (whole entry, looked up)": "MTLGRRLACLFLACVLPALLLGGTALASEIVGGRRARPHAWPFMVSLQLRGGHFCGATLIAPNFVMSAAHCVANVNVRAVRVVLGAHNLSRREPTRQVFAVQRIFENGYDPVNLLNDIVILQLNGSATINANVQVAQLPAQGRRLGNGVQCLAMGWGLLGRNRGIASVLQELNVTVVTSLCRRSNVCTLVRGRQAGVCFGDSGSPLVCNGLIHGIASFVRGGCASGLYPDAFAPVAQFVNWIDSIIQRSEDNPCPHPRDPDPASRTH"}
{"SMILES": "COc1cc(-c2cc(C(C)=O)n3ccccc23)c(OC)cc1Cn1ccnc1", "target": "PHIP, BD2 (Homo sapiens, UniProt Q8WWQ0)", "setting": "1 µM", "inhibition": "-11.4%"}
{"SMILES": "COc1ccc(C(=O)/C=C/c2cccc(-c3cccc(-c4ccc(CNCCO)c(OC)n4)c3C)c2)cc1", "target": "CD274", "test": "binding, inhibitor, HTRF", "setting": "1 µM", "inhibition": "6.9 ± 2.3%"}
{"SMILES": "CC(=O)c1nn(CC(=O)N2C[C@H](F)C[C@H]2C(=O)Nc2cccc(Br)n2)c2ccc(-c3cnc(C)nc3)cc12", "target": "Neutrophil elastase (ELANE, Homo sapiens, UniProt P08246)", "test": "enzyme activity", "system": "human neutrophils", "setting": "10 µM", "inhibition": "14.5%"}
{"SMILES": "CC(C)c1noc2ncc(C(=O)c3ccccc3O)cc12", "target": "Cacna1c", "test": "ion current, whole-cell patch-clamp", "setting": "10 µM", "inhibition": "15.6%"}
{"SMILES": "O=C(NC1CCC1)[C@H](Cc1c[nH]c2ccccc12)NC(=O)[C@H](CCCCNC(=S)NCCc1nnn[nH]1)NS(=O)(=O)c1cccc(F)c1", "target": "SIRT3", "test": "deacylase activity", "setting": "10 µM, together with: NAD+ 500 µM", "inhibition": "< 0%"}
{"SMILES": "COc1cc(C(C)(C)O)c(OC)cc1-c1cc(C(C)=O)n2ccccc12", "target": "BRD9", "test": "AlphaScreen", "setting": "1 µM", "inhibition": "94.6%"}
{"SMILES": "CC(C)(C)NC(=O)C[C@H](NC(=O)C(=O)c1c[nH]c2ccccc12)C(=O)NCc1cccc(B(O)O)c1", "target": "Proteasome component C5/PSMB5 (Homo sapiens, UniProt P20618+P28074)", "test": "β5 proteasome activity, inhibitor", "system": "HepG2", "setting": "concentration not given", "inhibition": "inhibited"}
{"SMILES": "[2H]c1cc(C)c(NC(=O)c2cnc(Nc3cc(N4CCCCC4)nc(C)n3)s2)c(Cl)c1", "target": "PTK6 (Homo sapiens, UniProt Q13882)", "setting": "0.01 µM", "inhibition": "30 to 90%"}
{"SMILES": "c1cc(C2CCCCC2)ccc1Oc1ccc2ncc(OCC3CCNCC3)nc2c1", "target": "Protein AF-9 with DOT1L", "test": "DOT1L binding, AlphaLISA", "setting": "10 µM", "inhibition": "2 to 16%"}
{"SMILES": "CCCCCCCCNC(=S)NCCCC[C@H](NS(C)(=O)=O)C(=O)N[C@H](C)C(=O)N[C@@H](CCCNC(=N)N)C(N)=O", "target": "SIRT3", "test": "enzyme activity, inhibitor", "setting": "10 µM", "inhibition": "< 5%"}
{"SMILES": "COc1c(C#N)ccnc1N1C2CCC1CN(C(=O)c1cccnc1-n1cccn1)C2", "target": "SK calcium-activated potassium channel", "test": "binding", "setting": "10 µM", "inhibition": "-12.2%"}
{"SMILES": "CC[C@@H]1[C@H](F)C(=O)N[C@@H]1COc1nccc2cc(C(N)=O)c(OC)cc12", "target": "CHEK2 (Homo sapiens, UniProt O96017)", "test": "ATP-site probe binding, ActivX profiling", "system": "THP-1 cell lysate", "setting": "0.2 mM, Lys2 site", "inhibition": "-0.254%"}
{"SMILES": "COc1cc(C(=O)NS(=O)(=O)c2ccccc2C)ccc1Cc1cn(C)c2ccc(NC(=O)OC3CCCC3)cc12", "target": "LRRC8C Y126F part LRRC8A IL1 chimera", "test": "ion current, inhibitor, whole-cell patch clamp", "system": "HCT LRRC8-/- cells", "setting": "0.03 µM, +100 mV", "inhibition": "20.3% and -0.81% and 17.2% and 15.7% and 7.58% and 20.1%"}
{"SMILES": "NC/C(=C\\F)COc1cccc(Cn2c(=S)[nH]c(=O)c3[nH]cnc32)c1", "target": "rat rolipram binding site", "test": "radioligand binding", "setting": "10 µM", "inhibition": "< 50%"}
{"SMILES": "CC[C@H](NCc1ccc(-c2cccc(-c3cccc(/C=C/C(=O)c4ccc(OC)cc4)c3)c2C)nc1OC)C(N)=O", "target": "CD274", "test": "binding, inhibitor, HTRF", "setting": "1 µM", "inhibition": "10.4 ± 3.2%"}
{"SMILES": "COc1cc(-c2cc(C(C)=O)n3ccccc23)c(OC)cc1CN(C)C", "target": "BRD9", "test": "AlphaScreen", "setting": "1 µM", "inhibition": "95.2%"}
{"SMILES": "COc1ccc(C(=O)/C=C/c2cccc(-c3cccc(-c4ccc(CNC(CO)CO)c(OC)n4)c3C)c2)cc1", "target": "CD274", "test": "binding, inhibitor, HTRF", "setting": "1 µM", "inhibition": "10.1 ± 1.1%"}
{"SMILES": "COc1ccc(Cl)cc1NC(=O)CN1C(=O)N[C@](C)(Cc2ccc(OC)c(OC)c2)C1=O", "target": "uncharacterized protein (Erigeron canadensis, UniProt A0A8M0FGR5)", "test": "enzyme activity", "setting": "100 mg/L", "inhibition": "> 30%"}
{"SMILES": "COc1cc(Cl)c(C(=O)N[C@@H](CN[C@H]2CC[C@@H](N)CC2)Cc2ccc(C#N)cc2)cc1-c1ccc(CN[C@H](C)c2ccc(C)cc2)o1", "target": "Oprk1 (Rattus norvegicus, UniProt P34975)", "test": "agonist response, antagonist", "setting": "10 µM", "scale": "relative to: agonist control", "inhibition": "62%"}
{"SMILES": "NNc1ccc2ccccc2c1", "target": "Secernin-3 (Homo sapiens, UniProt Q0VDG4)", "test": "probe labelling, inhibitor, competitive ABPP", "system": "HEK-293T cell lysate", "setting": "1 µM, 30 min, 25 °C", "inhibition": "inhibited"}
{"SMILES": "NC(=O)c1ccc(-c2nc(-c3ccc4c(c3)OCO4)c(-c3ccccn3)[nH]2)cc1", "target": "CSNK1D", "test": "inhibitor", "setting": "1 µM", "inhibition": "37%"}
{"SMILES": "Cc1ccc(C(=O)Nc2ccc3ccccc3c2)o1", "target": "Cacna1c", "test": "ion current, inhibitor, whole-cell patch clamp", "setting": "10 µM", "inhibition": "6.9% and 4.3% and 4.7% and 17.1% and 3.9%"}
{"SMILES": "c1ccc(Oc2ccc(-c3cc4ncc(OCC5CCNCC5)nc4cc3-c3ccc(Oc4ccccc4)cc3)cc2)cc1", "target": "Protein AF-9 with DOT1L", "test": "DOT1L binding, AlphaLISA", "setting": "10 µM", "inhibition": "27%"}
{"SMILES": "Cn1cc(-c2cnc3ccc(NC(=O)Nc4ccc(F)c(Br)c4)cc3n2)cn1", "target": "MAP3K1 (Homo sapiens, UniProt Q13233)", "test": "kinase binding, KiNativ profiling, item: Lys2 peptide", "system": "PANC-1 lysate", "setting": "2.5 µM", "inhibition": "39.4%"}
{"SMILES": "CCNCc1cnn(-c2ccc(-n3ccc(Cl)c(Cl)c3=O)cc2)c1C(F)(F)F", "target": "Trpv1 (Rattus norvegicus, UniProt O35433)", "test": "ion current, inhibitor, whole-cell patch clamp", "setting": "10 µM, together with: capsaicin-activated", "inhibition": "no inhibition"}
{"SMILES": "COCc1cc(OC)c(-c2cc(C(C)=O)n3ccccc23)cc1OC", "target": "BRD9", "test": "AlphaScreen", "setting": "1 µM", "inhibition": "94.4%"}
{"SMILES": "CN1CCN(c2cc(-c3ccncc3)c(-c3ccc4ccccc4c3)nn2)CC1", "target": "VIPR1 (Homo sapiens, UniProt P32241)", "test": "antagonist, FLIPR", "setting": "10 µM", "inhibition": "4%"}
{"SMILES": "Cc1cccc(-c2nc(-c3ccc(C#N)cc3)[nH]c2-c2ccncc2)c1", "target": "CSNK1D", "test": "kinase activity", "setting": "1 µM", "inhibition": "11%"}
{"SMILES": "CN(C(=O)n1cnc(-c2ccc[n+]([O-])c2)c1)C1CCCCC1", "target": "TACR3 (Homo sapiens, UniProt P29371)", "setting": "10 µM", "inhibition": "-13.8%"}
{"SMILES": "Cn1ncc2c(NC(P(=O)(O)O)P(=O)(O)O)nc(-c3cccc(C(=O)Nc4ccc(C(F)(F)F)cc4)c3)nc21", "target": "FDPS (Homo sapiens, UniProt P14324)", "test": "enzyme activity", "setting": "1 µM, 10 min preincubation", "inhibition": "no inhibition"}
{"SMILES": "Nc1cccc(-c2ccc3ncc(OCC4CCNCC4)nc3c2)c1", "target": "Protein AF-9 with DOT1L", "test": "DOT1L binding, AlphaLISA", "setting": "10 µM", "inhibition": "10 to 30%"}
{"SMILES": "Cc1c(COc2ccc(CN3CCCCC3C(=O)NCCCCCNC(=O)CN(C)CCCC34CCC(c5ccccc53)c3ccccc34)cc2Br)cccc1-c1ccccc1 (stereo not drawn)", "target": "CD274", "test": "binding, inhibitor, HTRF", "setting": "1 µM", "inhibition": "13.1 ± 2.5%"}
{"SMILES": "COc1cc(-c2ccc3ncc(OCC4CCNCC4)nc3c2)cc(OC)c1OC", "target": "Protein AF-9 with DOT1L", "test": "DOT1L binding, AlphaLISA", "setting": "10 µM", "inhibition": "10 to 30%"}
{"SMILES": "CN(c1ncccc1CNc1nc(Nc2ccc3c(c2)CC(=O)N3)ncc1C(F)(F)F)S(C)(=O)=O", "target": "CK1 (rat)", "test": "kinase activity", "setting": "1 µM", "inhibition": "0%"}
{"SMILES": "Nc1nc2c(ncn2[C@@H]2O[C@H](COP(=O)(O)OP(=O)(O)OP(=O)(O)O)[C@@H](O)[C@H]2O)c(=O)[nH]1", "target": "TGM2 (Homo sapiens, UniProt P21980)", "test": "enzyme activity, inhibitor, continuous fluorescence", "setting": "50 µM, 6 µg/mL enzyme, 10 mM Ca2+", "inhibition": "≤ 25%"}
{"SMILES": "CCC(=O)c1cc(-c2cc(OC)c(Cn3ccnc3)c(OC)c2)c2ccccn12", "target": "BRD9", "test": "AlphaScreen", "setting": "1 µM", "inhibition": "94.7%"}
{"SMILES": "CCc1ccc(Nc2ccc3ncc(OCC4CCNCC4)nc3c2)cc1", "target": "Protein AF-9 with DOT1L", "test": "DOT1L binding, AlphaLISA", "setting": "10 µM", "inhibition": "52%"}
{"SMILES": "COc1cc(-c2cc(C(C)=O)n3ccccc23)c(OC)cc1C(=O)N1CCOCC1", "target": "BRD9", "test": "AlphaScreen", "setting": "1 µM", "inhibition": "95.5%"}
{"SMILES": "c1ccc(Nc2ccc3ncc(OCC4CCNCC4)nc3c2)cc1", "target": "Protein AF-9 with DOT1L", "test": "DOT1L binding, AlphaLISA", "setting": "10 µM", "inhibition": "33%"}
{"SMILES": "O=C(Nc1cccc2c(=O)cc(-c3nnn[nH]3)oc12)c1ccc(OCCCCc2ccccc2)cc1", "target": "LRRC8C Y126F part LRRC8A IL1 chimera", "test": "ion current, inhibitor, whole-cell patch clamp", "system": "HCT LRRC8-/- cells", "setting": "1 µM, +100 mV", "inhibition": "75.2% and 80.6% and 81.3% and 82%"}
{"SMILES": "c1ccc(COc2ccc(-c3ccc4ncc(OCC5CCNCC5)nc4c3)cc2)cc1", "target": "Protein AF-9 with DOT1L", "test": "DOT1L binding, AlphaLISA", "setting": "10 µM", "inhibition": "0 to 21%"}
{"SMILES": "COc1cc(-c2cc(C(C)=O)n3ccccc23)cc(OC)c1CN1CC(O)C1", "target": "BRD9", "test": "AlphaScreen", "setting": "1 µM", "inhibition": "95.1%"}
{"note": "Some of these lines once more:"}
{"SMILES": "CC(C)c1noc2ncc(C(=O)c3ccccc3O)cc12", "target": "Cacna1c", "test": "ion current, whole-cell patch-clamp", "setting": "10 µM", "inhibition": "15.6%"}
{"SMILES": "COc1ccc(C(=O)/C=C/c2cccc(-c3cccc(-c4ccc(CNCCO)c(OC)n4)c3C)c2)cc1", "target": "CD274", "test": "binding, inhibitor, HTRF", "setting": "1 µM", "inhibition": "6.9 ± 2.3%"}
{"SMILES": "c1ccc(Nc2ccc3ncc(OCC4CCNCC4)nc3c2)cc1", "target": "Protein AF-9 with DOT1L", "test": "DOT1L binding, AlphaLISA", "setting": "10 µM", "inhibition": "33%"}
{"SMILES": "CCc1ccc(Nc2ccc3ncc(OCC4CCNCC4)nc3c2)cc1", "target": "Protein AF-9 with DOT1L", "test": "DOT1L binding, AlphaLISA", "setting": "10 µM", "inhibition": "52%"}
{"SMILES": "COc1cc(-c2cc(C(C)=O)n3ccccc23)c(OC)cc1C(=O)N1CCOCC1", "target": "BRD9", "test": "AlphaScreen", "setting": "1 µM", "inhibition": "95.5%"}
